Published values gathered from unrelated publications.
Lines come from different studies, so protocols differ. Values joined by “and” are separate records of one study, mostly repeats; a detail may differ.
HDAC8: Histone deacetylase 8 (HDAC8, Homo sapiens, UniProt Q9BY41)
Sequence of UniProt Q9BY41 (whole entry, looked up): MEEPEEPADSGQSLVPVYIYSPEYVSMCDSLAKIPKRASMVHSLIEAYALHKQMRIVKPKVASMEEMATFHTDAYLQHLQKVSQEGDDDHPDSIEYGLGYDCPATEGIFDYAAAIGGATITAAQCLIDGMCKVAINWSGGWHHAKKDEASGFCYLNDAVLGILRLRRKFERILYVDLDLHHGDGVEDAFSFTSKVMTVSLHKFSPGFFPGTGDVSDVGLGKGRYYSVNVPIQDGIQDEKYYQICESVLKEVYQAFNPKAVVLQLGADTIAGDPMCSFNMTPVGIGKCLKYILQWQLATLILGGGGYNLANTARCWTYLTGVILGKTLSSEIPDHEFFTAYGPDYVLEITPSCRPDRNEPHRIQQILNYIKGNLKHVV
CES2: Cocaine esterase (CES2, Homo sapiens, UniProt O00748)
Sequence of UniProt O00748 (whole entry, looked up): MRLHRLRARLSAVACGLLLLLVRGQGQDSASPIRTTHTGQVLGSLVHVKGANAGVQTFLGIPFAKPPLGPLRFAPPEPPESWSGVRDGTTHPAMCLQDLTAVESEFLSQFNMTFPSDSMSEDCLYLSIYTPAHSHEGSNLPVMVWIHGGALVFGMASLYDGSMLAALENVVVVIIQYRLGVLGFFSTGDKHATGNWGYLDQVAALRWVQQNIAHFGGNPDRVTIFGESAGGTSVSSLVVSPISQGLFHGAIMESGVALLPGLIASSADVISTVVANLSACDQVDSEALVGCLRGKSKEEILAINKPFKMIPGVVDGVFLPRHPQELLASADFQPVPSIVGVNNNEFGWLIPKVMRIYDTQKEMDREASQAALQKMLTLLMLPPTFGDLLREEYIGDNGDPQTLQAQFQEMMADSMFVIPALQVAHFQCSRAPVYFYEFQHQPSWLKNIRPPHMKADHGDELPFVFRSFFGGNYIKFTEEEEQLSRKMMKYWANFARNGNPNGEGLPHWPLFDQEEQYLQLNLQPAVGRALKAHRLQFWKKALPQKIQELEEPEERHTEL
HDAC1: Histone deacetylase 1 (HDAC1, Homo sapiens, UniProt Q13547)
Sequence of UniProt Q13547 (whole entry, looked up): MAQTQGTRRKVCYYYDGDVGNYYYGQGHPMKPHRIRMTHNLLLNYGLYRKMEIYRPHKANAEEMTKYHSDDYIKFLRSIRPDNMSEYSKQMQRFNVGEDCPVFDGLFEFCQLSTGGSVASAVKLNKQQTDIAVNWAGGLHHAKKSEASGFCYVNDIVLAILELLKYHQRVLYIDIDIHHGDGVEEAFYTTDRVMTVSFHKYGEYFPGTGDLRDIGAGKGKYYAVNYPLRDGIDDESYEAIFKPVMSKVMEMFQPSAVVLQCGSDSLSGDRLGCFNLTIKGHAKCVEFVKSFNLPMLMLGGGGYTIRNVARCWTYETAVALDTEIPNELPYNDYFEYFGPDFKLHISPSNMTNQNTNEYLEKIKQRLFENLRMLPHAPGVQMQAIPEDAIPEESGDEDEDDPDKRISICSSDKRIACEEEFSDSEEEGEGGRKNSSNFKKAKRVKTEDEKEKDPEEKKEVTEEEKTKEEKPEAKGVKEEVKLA
DRD3: D(3) dopamine receptor (DRD3, Homo sapiens, UniProt P35462)
Sequence of UniProt P35462 (whole entry, looked up): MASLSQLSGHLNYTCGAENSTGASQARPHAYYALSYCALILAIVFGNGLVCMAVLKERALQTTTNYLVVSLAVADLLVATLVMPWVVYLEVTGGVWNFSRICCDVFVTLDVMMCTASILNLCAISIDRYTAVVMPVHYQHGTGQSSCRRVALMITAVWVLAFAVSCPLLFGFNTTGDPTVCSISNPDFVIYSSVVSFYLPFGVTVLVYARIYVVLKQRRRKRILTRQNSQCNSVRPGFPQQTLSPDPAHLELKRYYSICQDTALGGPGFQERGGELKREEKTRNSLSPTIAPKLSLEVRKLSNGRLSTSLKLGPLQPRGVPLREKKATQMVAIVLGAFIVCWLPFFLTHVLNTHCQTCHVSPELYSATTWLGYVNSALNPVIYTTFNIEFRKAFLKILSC
PIK3CB: Phosphatidylinositol 4,5-bisphosphate 3-kinase catalytic subunit beta isoform (PIK3CB, Homo sapiens, UniProt P42338)
Sequence of UniProt P42338 (whole entry, looked up): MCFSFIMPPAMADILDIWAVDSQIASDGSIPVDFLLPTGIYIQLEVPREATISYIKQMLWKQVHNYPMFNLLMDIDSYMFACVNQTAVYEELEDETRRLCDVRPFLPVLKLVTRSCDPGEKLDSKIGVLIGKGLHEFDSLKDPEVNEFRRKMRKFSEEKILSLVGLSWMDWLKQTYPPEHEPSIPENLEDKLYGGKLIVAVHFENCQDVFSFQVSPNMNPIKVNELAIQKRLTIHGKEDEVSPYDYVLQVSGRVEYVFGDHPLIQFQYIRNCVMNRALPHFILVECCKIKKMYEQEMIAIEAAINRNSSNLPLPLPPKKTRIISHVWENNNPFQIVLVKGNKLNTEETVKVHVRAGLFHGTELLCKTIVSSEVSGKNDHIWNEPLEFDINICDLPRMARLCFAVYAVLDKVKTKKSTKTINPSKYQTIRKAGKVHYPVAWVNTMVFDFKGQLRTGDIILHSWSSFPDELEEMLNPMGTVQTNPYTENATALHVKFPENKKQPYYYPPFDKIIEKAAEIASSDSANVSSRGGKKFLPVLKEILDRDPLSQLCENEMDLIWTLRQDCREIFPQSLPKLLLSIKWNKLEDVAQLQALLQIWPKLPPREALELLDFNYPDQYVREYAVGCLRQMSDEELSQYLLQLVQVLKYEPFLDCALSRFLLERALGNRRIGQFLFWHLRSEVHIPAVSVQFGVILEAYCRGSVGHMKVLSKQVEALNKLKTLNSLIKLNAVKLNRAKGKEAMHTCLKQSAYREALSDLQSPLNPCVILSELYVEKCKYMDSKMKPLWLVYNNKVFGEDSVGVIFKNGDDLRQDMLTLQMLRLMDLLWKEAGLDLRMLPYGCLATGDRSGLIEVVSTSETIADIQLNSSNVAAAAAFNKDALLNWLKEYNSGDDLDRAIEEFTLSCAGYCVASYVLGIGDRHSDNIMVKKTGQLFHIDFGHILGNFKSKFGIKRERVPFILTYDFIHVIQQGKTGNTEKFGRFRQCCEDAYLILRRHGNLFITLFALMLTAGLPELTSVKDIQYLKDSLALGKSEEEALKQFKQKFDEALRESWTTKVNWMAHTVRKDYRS
PARP2: Poly [ADP-ribose] polymerase 2 (PARP2, Homo sapiens, UniProt Q9UGN5)
Sequence of UniProt Q9UGN5 (whole entry, looked up): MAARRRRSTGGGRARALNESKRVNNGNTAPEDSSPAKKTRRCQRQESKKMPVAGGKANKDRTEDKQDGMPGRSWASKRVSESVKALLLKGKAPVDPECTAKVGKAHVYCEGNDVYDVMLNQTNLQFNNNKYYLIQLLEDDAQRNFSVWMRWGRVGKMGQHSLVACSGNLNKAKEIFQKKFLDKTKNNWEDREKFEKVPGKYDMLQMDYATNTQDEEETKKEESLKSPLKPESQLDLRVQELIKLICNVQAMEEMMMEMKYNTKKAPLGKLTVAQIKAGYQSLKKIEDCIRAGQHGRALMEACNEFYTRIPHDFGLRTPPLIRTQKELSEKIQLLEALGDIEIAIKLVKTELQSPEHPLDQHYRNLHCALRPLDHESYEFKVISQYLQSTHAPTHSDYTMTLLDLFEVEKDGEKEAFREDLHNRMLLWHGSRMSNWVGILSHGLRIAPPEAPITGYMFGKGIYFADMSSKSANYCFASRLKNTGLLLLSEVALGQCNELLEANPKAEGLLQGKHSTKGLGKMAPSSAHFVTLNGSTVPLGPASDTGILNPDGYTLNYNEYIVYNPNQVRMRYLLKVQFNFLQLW
Sequence of UniProt Q9UM07 (whole entry, looked up): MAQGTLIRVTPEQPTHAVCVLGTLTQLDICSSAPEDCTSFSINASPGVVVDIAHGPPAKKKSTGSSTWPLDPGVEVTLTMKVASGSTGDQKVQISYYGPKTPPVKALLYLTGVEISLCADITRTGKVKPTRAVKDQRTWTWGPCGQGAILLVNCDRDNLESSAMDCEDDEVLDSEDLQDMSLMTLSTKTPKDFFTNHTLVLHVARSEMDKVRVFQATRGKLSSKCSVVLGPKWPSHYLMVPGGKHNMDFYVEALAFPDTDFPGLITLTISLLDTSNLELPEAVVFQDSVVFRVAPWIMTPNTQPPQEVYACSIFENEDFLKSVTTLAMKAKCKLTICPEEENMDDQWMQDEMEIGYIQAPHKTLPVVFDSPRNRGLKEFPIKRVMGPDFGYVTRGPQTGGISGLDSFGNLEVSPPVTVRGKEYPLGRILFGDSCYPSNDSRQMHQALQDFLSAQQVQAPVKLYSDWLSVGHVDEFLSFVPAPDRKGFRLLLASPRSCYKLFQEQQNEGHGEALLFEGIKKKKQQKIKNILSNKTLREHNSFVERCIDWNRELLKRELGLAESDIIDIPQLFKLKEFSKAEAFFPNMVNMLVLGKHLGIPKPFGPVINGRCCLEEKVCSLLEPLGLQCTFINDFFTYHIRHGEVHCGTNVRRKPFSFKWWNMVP
Sequence of UniProt P05979 (whole entry, looked up): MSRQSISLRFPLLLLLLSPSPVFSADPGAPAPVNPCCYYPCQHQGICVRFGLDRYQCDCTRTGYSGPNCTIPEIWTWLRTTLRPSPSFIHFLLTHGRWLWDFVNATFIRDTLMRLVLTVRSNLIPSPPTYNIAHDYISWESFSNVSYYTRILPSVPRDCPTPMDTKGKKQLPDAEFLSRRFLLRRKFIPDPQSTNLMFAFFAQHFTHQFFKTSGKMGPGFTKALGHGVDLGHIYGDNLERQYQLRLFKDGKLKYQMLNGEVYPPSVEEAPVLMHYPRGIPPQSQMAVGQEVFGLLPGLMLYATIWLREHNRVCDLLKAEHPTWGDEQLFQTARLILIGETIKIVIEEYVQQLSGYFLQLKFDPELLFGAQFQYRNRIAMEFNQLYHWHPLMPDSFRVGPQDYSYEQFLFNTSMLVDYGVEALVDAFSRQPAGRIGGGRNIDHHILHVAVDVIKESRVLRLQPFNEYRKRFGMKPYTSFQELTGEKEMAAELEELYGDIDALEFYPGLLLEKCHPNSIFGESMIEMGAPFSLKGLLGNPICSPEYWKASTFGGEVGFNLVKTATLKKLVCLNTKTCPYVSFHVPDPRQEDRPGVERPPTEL
Sequence of UniProt P28062 (whole entry, looked up): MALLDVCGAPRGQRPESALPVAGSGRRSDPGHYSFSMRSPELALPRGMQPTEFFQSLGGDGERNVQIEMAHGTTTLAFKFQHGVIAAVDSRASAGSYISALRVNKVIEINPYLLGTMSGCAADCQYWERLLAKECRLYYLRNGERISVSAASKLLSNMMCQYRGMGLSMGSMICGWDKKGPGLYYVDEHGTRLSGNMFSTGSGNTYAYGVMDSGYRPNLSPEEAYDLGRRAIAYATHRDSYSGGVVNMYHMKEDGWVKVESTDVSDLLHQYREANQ

`Cc1ccc(S(=O)(=O)NNC(=O)COC(=O)c2ccccc2Nc2cccc(C(F)(F)F)c2)cc1` gave an IC50 of 15 to 26 µM and 15.3 µM (PTGS1 (Ovis aries, UniProt P05979); enzyme activity, inhibitor).
For `COc1ccc(OS(=O)(=O)Oc2cccc(C(=O)NO)c2)cc1OC`, the IC50 was 0.033 µM (HDAC8; enzyme activity, inhibitor, fluorescence).
For `NC(=O)c1ccc(C(=O)NOCc2cccc(C(F)(F)F)c2)cc1`, the IC50 was 2.76 µM (SIRT6 (Homo sapiens, UniProt Q8N6T7); enzyme activity, inhibitor, fluorescence).
The IC50 of `COc1ccc2c(c1)C(=O)/C(=C/c1ccccc1)C2` is reported as 2.36 µM (CES2; enzyme activity, inhibitor, fluorescence; with preincubation).
The IC50 of `O=C(NO)c1cccc(OS(=O)(=O)Oc2ccc3ccccc3c2)c1` is reported as 4.79 µM (HDAC1; enzyme activity, inhibitor, fluorescence).
The IC50 of `Cc1[nH]c(C)c(S(=O)(=O)Nc2cc(Cl)c(C(F)(F)F)cc2Br)c1C(=O)N1CCC(F)(F)C1` is reported as 3.3 µM (DRD3; β-arrestin recruitment, antagonist).
With `O=C1C(=Nc2cccc(Cl)c2)c2ccccc2N1Cc1ccc([N+](=O)[O-])cc1` the IC50 was 0.0137 µM (PIK3CB; enzyme activity, inhibitor, ADP detection).
`CCc1ccc(NS(=O)(=O)c2c(C)[nH]c(C)c2C(=O)N2CCCC2)cc1Cl` gave an IC50 of 11 µM (DRD3; β-arrestin recruitment, antagonist).
`CCCCOc1nc(N)nc(N)c1OCCCOc1ccccc1CCC(=O)O` gave an IC50 of > 5 µM (Dihydrofolate reductase (Mycobacterium avium, UniProt O30463); enzyme activity, inhibitor).
The IC50 of `CC(C)c1cccc(OS(=O)(=O)Oc2cc(F)cc(C(=O)NO)c2)c1` is reported as 3.54 µM (HDAC8; enzyme activity, inhibitor, fluorescence).
`COc1ccc(Cn2nnc3c4ccc(F)cc4c(=O)[nH]c32)cc1` has an IC50 of > 10 µM (PARP2; enzyme activity, inhibitor).
The IC50 of `Cc1[nH]c(C)c(S(=O)(=O)Nc2ccc(Cl)cc2C(F)(F)F)c1C(=O)N1CCC(F)(F)C1` is reported as 18 µM (DRD3; β-arrestin recruitment, antagonist).
The IC50 of `CC(C)c1ccc(OS(=O)(=O)Oc2cccc(C(=O)NO)c2)cc1` is reported as 1.27 µM (HDAC8; enzyme activity, inhibitor, fluorescence).
For `Cc1[nH]cc(S(=O)(=O)Nc2ccc(C(F)(F)F)c(Cl)c2)c1C(=O)N1CCC(F)(F)C1`, the IC50 was 26 µM (DRD3; β-arrestin recruitment, antagonist).
The IC50 of `COc1cc2c(cc1OC)C(=O)/C(=C/c1cccnc1)C2` is reported as 8.08 µM (CES2; enzyme activity, inhibitor, fluorescence; with preincubation).
For `O=C1C(=Nc2ccc(Cl)cc2)c2ccccc2N1Cc1cccc(Cl)c1`, the IC50 was 0.058 µM (PIK3CB; enzyme activity, inhibitor, ADP detection).
`CNC(=O)c1cc2c(Oc3ccc(NC(=O)C4(C(=O)Nc5ccc(F)cc5)CC4)cc3)ccnc2cc1OC` gave an IC50 of 0.013 µM (MET (Homo sapiens, UniProt P08581, M1250T); enzyme activity, inhibitor, radiometric).
With `Cc1ccc(CN2C(=O)C(=Nc3cccc(Cl)c3)c3ccccc32)cc1` the IC50 was 0.0648 µM (PIK3CB; enzyme activity, inhibitor, ADP detection).
With `Cc1[nH]c(C)c(S(=O)(=O)Nc2ccc(Cl)c(Cl)c2Cl)c1C(=O)N1CCC(F)(F)C1` the IC50 was 1.4 µM (DRD3; G protein activation, antagonist, BRET).
`O=C(NO)c1cccc(OS(=O)(=O)Oc2ccc3c(c2)OCO3)c1` gave an IC50 of 4.38 µM (HDAC1; enzyme activity, inhibitor, fluorescence).
`N=C(CCl)NCCC[C@H](NC(=O)c1ccc2cc(-c3cc(F)c(F)c(F)c3)ccc2c1)C(=O)NCc1ccccc1` gave an IC50 of > 2 µM and 2.1 µM (PADI4 (Homo sapiens, UniProt Q9UM07); enzyme activity, inhibitor, fluorescence; with preincubation).
`COc1cccc(Cn2nnc3c4ccccc4c(=O)[nH]c32)c1` has an IC50 of > 10 µM (PARP2; enzyme activity, inhibitor).
`Cc1nc(N(Cc2ccccc2)c2ccc3c(c2)/C(=C/c2ccccc2)C(=O)N3Cc2ccccc2)c2ccccc2n1` (mixture of isomers) has an IC50 of 0.0942 µM (PIK3CB; enzyme activity, inhibitor, ADP detection).
`Cc1[nH]cc(C(=O)N2CCC(F)(F)C2)c1S(=O)(=O)Nc1ccc(C(F)(F)F)c(Cl)c1` has an IC50 of 3 µM (DRD3; G protein activation, antagonist, BRET).
`O=c1[nH]c2c(nnn2-c2ccc(Br)cc2)c2ccccc12` has an IC50 of > 10 µM (PARP2; enzyme activity, inhibitor).
`COc1cc2c(cc1OC)C(=O)/C(=C/c1ccc(O)cc1F)C2` gave an IC50 of > 100 µM (CES2; enzyme activity, inhibitor, fluorescence; with preincubation).
With `Clc1ccc(C2(c3ccc(-c4ccnc5[nH]ccc45)cc3)CCNCC2)cc1` the IC50 was 0.001 µM (AKT1 (Homo sapiens, UniProt P31749); enzyme activity, inhibitor, radiometric).
`COc1ccc(C[C@H](NC(=O)[C@H](C)NC(=O)CN2CCOCC2)C(=O)N[C@@H](CC2CCC3CCCCC3C2)C(=O)[C@@]2(C)CO2)cc1` (stereo partly drawn) has an IC50 of 0.375 µM (PSMB8 (Homo sapiens, UniProt P28062); enzyme activity, inhibitor; lysate).
`CCCCn1c(=O)c2cc(F)ccc2c2nnn(Cc3ccc(C)cc3)c21` gave an IC50 of > 10 µM (PARP2; enzyme activity, inhibitor).
With `Cc1[nH]c(C)c(S(=O)(=O)Nc2ccc(C3CC3)c(Cl)c2)c1C(=O)N1CCC(F)(F)C1` the IC50 was 6 µM (DRD3; G protein activation, antagonist, BRET).
`CC(=O)Nc1cccc(-n2c(=O)n(C3CC3)c(=O)c3c(Nc4ccc(I)cc4F)n(C)c(=O)c(C)c32)c1` has an IC50 of 17.2 µM (CES2; enzyme activity, inhibitor, fluorescence; with preincubation).
`[C-]#[N+]CCCOc1ccc2c(-c3ccccc3C(=O)OCC)c3ccc(=O)cc-3oc2c1` gave an IC50 of 74 µM (ALOX15 (Homo sapiens, UniProt P16050); enzyme activity, inhibitor, absorbance).
For `Cc1cnc(NC(=O)C2=C(O)c3ccccc3S(=O)(=O)N2C)s1`, the IC50 was > 100 µM (CES2; enzyme activity, inhibitor, fluorescence; with preincubation).
With `O=C(NO)c1cc(F)cc(OS(=O)(=O)Oc2ccc(-n3ccnc3)cc2)c1` the IC50 was 0.706 µM (HDAC8; enzyme activity, inhibitor, fluorescence).
`COc1cc2c(cc1OC)C(=O)/C(=C/c1cccs1)C2` gave an IC50 of 18.8 µM (CES2; enzyme activity, inhibitor, fluorescence; with preincubation).
With `O=C(NO)c1cc(F)cc(OS(=O)(=O)Oc2ccc(Oc3ccccc3)cc2)c1` the IC50 was 5.85 µM (HDAC8; enzyme activity, inhibitor, fluorescence).
The IC50 of `Cc1ccc(NS(=O)(=O)c2c(C)[nH]c(C)c2C(=O)N2CCC2)cc1Cl` is reported as 13 µM (DRD3; G protein activation, antagonist, BRET).
`O=C(NO)c1cncc(OS(=O)(=O)Oc2ccc(C(F)(F)F)cc2)c1` has an IC50 of 5.97 µM (HDAC5 (Homo sapiens, UniProt Q9UQL6); enzyme activity, inhibitor, fluorescence).
`Nc1nc2c(s1)C(c1ccccc1Cl)CC(=O)N2` (stereo not drawn) gave an IC50 of < 10 µM (ALDH1A1 (Homo sapiens, UniProt P00352); enzyme activity, inhibitor, fluorescence).

Excerpt of the above:
`COc1ccc(C[C@H](NC(=O)[C@H](C)NC(=O)CN2CCOCC2)C(=O)N[C@@H](CC2CCC3CCCCC3C2)C(=O)[C@@]2(C)CO2)cc1` (stereo partly drawn) has an IC50 of 0.375 µM (PSMB8 (Homo sapiens, UniProt P28062); enzyme activity, inhibitor; lysate).
`N=C(CCl)NCCC[C@H](NC(=O)c1ccc2cc(-c3cc(F)c(F)c(F)c3)ccc2c1)C(=O)NCc1ccccc1` gave an IC50 of > 2 µM and 2.1 µM (PADI4 (Homo sapiens, UniProt Q9UM07); enzyme activity, inhibitor, fluorescence; with preincubation).
`COc1cc2c(cc1OC)C(=O)/C(=C/c1ccc(O)cc1F)C2` gave an IC50 of > 100 µM (CES2; enzyme activity, inhibitor, fluorescence; with preincubation).
With `O=C(NO)c1cc(F)cc(OS(=O)(=O)Oc2ccc(Oc3ccccc3)cc2)c1` the IC50 was 5.85 µM (HDAC8; enzyme activity, inhibitor, fluorescence).
